# Results collected from several papers.
# Each numbered part is a random draw from the data of one study; scales do not carry over between parts. Changes are numbered by the printed parent chain.

# Series 1 — technique: DHFR PCA, deep sequencing; medium: yeast; with: (+)-ABA 2500 µM; baseline: wild-type fitted maximum; direction: higher = stronger binding
# Target: ABI1, truncated, D143A, DHFR fusion (Arabidopsis thaliana)
# Notes: methotrexate growth selection, single substitutions
# Parent: PYL1, truncated, DHFR fusion (Arabidopsis thaliana); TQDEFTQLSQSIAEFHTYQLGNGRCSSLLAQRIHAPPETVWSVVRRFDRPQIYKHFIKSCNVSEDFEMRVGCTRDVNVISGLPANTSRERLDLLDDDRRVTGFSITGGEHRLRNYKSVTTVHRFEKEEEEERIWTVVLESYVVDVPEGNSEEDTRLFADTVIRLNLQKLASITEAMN
Change,relative binding score [%]
V76P,15.2
E130I,107
V76F,57
H122P,22.3
V142G,85.5
V137C,95.4
A170Y,58.8
E38V,86.5
V76M,84.3
F47P,9.64
R88H,103
R113C,105
S11Q,104
E151T,94
D96W,67.9
I105E,60.8
T39A,101
R32E,95.4
V78I,96.9

# Series 2 — technique: RNA Bind-n-Seq; form: RNA; medium: in vitro; concentration: 365 nM; baseline: no-protein control; direction: higher = stronger binding
# Target: RNA binding protein fox-1 homolog 2, RRM domain, GST-SBP tag (RBFOX2, Homo sapiens, UniProt O43251-10, residues 100-194)
# Notes: natural RNA segment, single round, ends assumed
# Residues (chain): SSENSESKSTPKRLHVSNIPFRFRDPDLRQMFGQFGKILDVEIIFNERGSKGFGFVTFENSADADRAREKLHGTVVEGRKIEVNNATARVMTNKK
Strand,RBNS enrichment (R)
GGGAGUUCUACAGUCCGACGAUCUUUAAGAAAAACAAUGUUAAUAUAAAAUUAGGUACAGGGUCUUGGAAGGGGCCCUGAAGAUUAAGCUUCCUUAGCGUCACAAUAAGUCCGUAUCUGGUUGCAAUUGAAAAUGGAAUUCUCGGGUGCCAA,0.668
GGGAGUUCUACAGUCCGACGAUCAAAACUCUCAAGAAAGCAAAUUGCACCUCAGCUGGAUUGAUUUCCAAAUGCUAGCAUGUACUGUAUGGGAGGAUGAUCCAGAUGUUUCAAAGAGAAUUUCUCUUAGUUUAUGGAAUUCUCGGGUGCCAA,13
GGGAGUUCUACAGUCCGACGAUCGGUGAGAAAGGAUUUGAAACCAUAAAGUGUUUUAAAGAAAUGAACUCUUCAGAAACAGACUUCCUCCUCUUUUCCUUUCUCCUCUGCUCCACAGCCUGUGCUCUGUUCAGUGGAAUUCUCGGGUGCCAA,0.465
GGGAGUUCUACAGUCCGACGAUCCUGUCUAUGUAUCUUAAUCACAAAUGGUUUCAUUCACUUUACUUUUAAAAAUUUGUCCUUAAAUGAAUAAAUAAAAUAAAAGUUGGUCCUGUGAGAGGAUAAUGAAGAUGUGGAAUUCUCGGGUGCCAA,0.305
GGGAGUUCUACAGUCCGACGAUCCAGGAGUUUCCUGAGGUAGGUUAGUAGGGUCACGUGAAUGCCUCACUAUGACAUGACUUGAGUCCAGUGAGAUCUCAUUAGGAUUAAUAUUUCAGGGAUCCUUAAUAUUUUGGAAUUCUCGGGUGCCAA,5.25
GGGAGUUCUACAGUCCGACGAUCGACUGGCAGUUAACUUGUGCAACUCACUGAAACCAAAAUAUUGAAGAAGUCCCACAUGGAAGACGCUGUUCCAGGAUCUUUACCUUUCCAAAGGAUGCAUACAGGAUAUUUGGAAUUCUCGGGUGCCAA,0.913
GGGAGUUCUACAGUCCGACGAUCGCAGCGUUUGUUUGGAAUUUUCUUUGCUUUUGUUUUCUUUGCGGUUGUUCUGUGUGCAUGGAUUCCACACCUCUGCCGUAGGUAGAUCCGUCAGCGGGCAUUAUUACCGUUGGAAUUCUCGGGUGCCAA,2.81
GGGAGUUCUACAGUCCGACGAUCUGCCCUCUGUGCUAUCAUCUUAUCAUCAAUUAUUAGACAAAUCCCACUGGCCUACAGUCUUGCUUCUGCAGCACCCACUUUGUCUCCUCAGGUAGUGAUGAAUUAGUUGCUGGAAUUCUCGGGUGCCAA,0.632

# Series 3 — target: BATF, bZIP domain (human); technique: DHFR protein complementation; medium: yeast; baseline: wild-type JUN-FOS pair; direction: higher = stronger binding
# Notes: single substitutions, most at no-binding floor
# Parent: JUN, bZIP domain (human); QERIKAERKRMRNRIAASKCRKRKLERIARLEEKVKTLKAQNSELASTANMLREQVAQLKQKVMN; partner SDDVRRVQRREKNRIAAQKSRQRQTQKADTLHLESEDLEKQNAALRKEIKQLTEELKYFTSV
Change,binding fitness
M51F,-0.0155 natural log
L31V,-0.152 natural log
L59G,-0.327 natural log
K39T,-0.0943 natural log
L45A,-0.939 natural log
E54M,-0.0646 natural log
A46K,0.0997 natural log
S47G,0.013 natural log
S47W,-0.0584 natural log
T48A,-0.0621 natural log
A46T,0.0983 natural log
L38K,-0.599 natural log
Q41R,-0.15 natural log
S47M,-0.0227 natural log
R53G,-0.492 natural log
T37V,0.00864 natural log
V56Y,-0.675 natural log
V35G,-0.846 natural log
A57V,-0.107 natural log
T48Q,0.0419 natural log
A49E,-0.542 natural log
V56W,-0.47 natural log
L38W,-0.756 natural log
E32P,-0.505 natural log
N42A,-0.41 natural log

# Series 4 — target: CCNE2, cyclin fold, Cln2 fusion (human); technique: yeast growth competition, sequencing; medium: yeast; notes: weak parent motif; baseline: not given; direction: higher = stronger binding
# Parent: ORC1 docking peptide (human); PRARKRLELGNLG
Change,normalised enrichment score
PRARKRLEQGNLG [L9Q],1.15
PRARKRLELGNLR [G13R],0.727
PRALKRLELGNLG [R4L],0.441
PRARKQLELGNLG [R6Q],0.114
PRARKSLELGNLG [R6S],0.281
PRARKRLELGNVG [L12V],0.571
PRARKGLELGNLG [R6G],1.16
PRVRKRLELGNLG [A3V],-0.0795
ARARKRLELGNLG [P1A],1.47
PRAVKRLELGNLG [R4V],0.445
PRARKHLELGNLG [R6H],0.872
PRDRKRLELGNLG [A3D],0.276
PRARLRLELGNLG [K5L],-0.128
PRARKRIELGNLG [L7I],1.09
PRARKRLELSNLG [G10S],0.36
PRARKRLELGFLG [N11F],0.547
PRAFKRLELGNLG [R4F],1.14
PKARKRLELGNLG [R2K],0.404
PRARKRKELGNLG [L7K],1.2
PRARKRLELGNLE [G13E],-0.0568
PRAKKRLELGNLG [R4K],-0.24
VRARKRLELGNLG [P1V],-0.114
PRARKRLELGNLD [G13D],0.375
PRARKRLHLGNLG [E8H],0.138
PRACKRLELGNLG [R4C],0.202

# Mixed results
Substance,target,test,test system,setting,scale,measurement,result
"PhoQ, residues 284 288 289 292 302 303 AMDMFI","PhoP, residues 12 14 15 18 19 NQAHL (Escherichia coli, UniProt P23836)","Sort-seq, refers to: YFP reporter",E. coli,"PhoQ-PhoP variant library, with: 10 µM Mg2+","baseline: high Mg2+ state, higher = stronger signaling",fold induction,1.48

# A few entries again (series 2):
Strand,RBNS enrichment (R)
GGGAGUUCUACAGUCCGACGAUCCUGUCUAUGUAUCUUAAUCACAAAUGGUUUCAUUCACUUUACUUUUAAAAAUUUGUCCUUAAAUGAAUAAAUAAAAUAAAAGUUGGUCCUGUGAGAGGAUAAUGAAGAUGUGGAAUUCUCGGGUGCCAA,0.305
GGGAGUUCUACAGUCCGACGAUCCAGGAGUUUCCUGAGGUAGGUUAGUAGGGUCACGUGAAUGCCUCACUAUGACAUGACUUGAGUCCAGUGAGAUCUCAUUAGGAUUAAUAUUUCAGGGAUCCUUAAUAUUUUGGAAUUCUCGGGUGCCAA,5.25
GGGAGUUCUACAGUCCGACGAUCAAAACUCUCAAGAAAGCAAAUUGCACCUCAGCUGGAUUGAUUUCCAAAUGCUAGCAUGUACUGUAUGGGAGGAUGAUCCAGAUGUUUCAAAGAGAAUUUCUCUUAGUUUAUGGAAUUCUCGGGUGCCAA,13
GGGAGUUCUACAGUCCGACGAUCGGUGAGAAAGGAUUUGAAACCAUAAAGUGUUUUAAAGAAAUGAACUCUUCAGAAACAGACUUCCUCCUCUUUUCCUUUCUCCUCUGCUCCACAGCCUGUGCUCUGUUCAGUGGAAUUCUCGGGUGCCAA,0.465
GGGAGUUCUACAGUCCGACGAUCUUUAAGAAAAACAAUGUUAAUAUAAAAUUAGGUACAGGGUCUUGGAAGGGGCCCUGAAGAUUAAGCUUCCUUAGCGUCACAAUAAGUCCGUAUCUGGUUGCAAUUGAAAAUGGAAUUCUCGGGUGCCAA,0.668
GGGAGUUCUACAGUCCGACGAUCUGCCCUCUGUGCUAUCAUCUUAUCAUCAAUUAUUAGACAAAUCCCACUGGCCUACAGUCUUGCUUCUGCAGCACCCACUUUGUCUCCUCAGGUAGUGAUGAAUUAGUUGCUGGAAUUCUCGGGUGCCAA,0.632
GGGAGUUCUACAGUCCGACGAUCGACUGGCAGUUAACUUGUGCAACUCACUGAAACCAAAAUAUUGAAGAAGUCCCACAUGGAAGACGCUGUUCCAGGAUCUUUACCUUUCCAAAGGAUGCAUACAGGAUAUUUGGAAUUCUCGGGUGCCAA,0.913
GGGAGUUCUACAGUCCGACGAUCGCAGCGUUUGUUUGGAAUUUUCUUUGCUUUUGUUUUCUUUGCGGUUGUUCUGUGUGCAUGGAUUCCACACCUCUGCCGUAGGUAGAUCCGUCAGCGGGCAUUAUUACCGUUGGAAUUCUCGGGUGCCAA,2.81
